Measurements gathered from unrelated publications.
Values joined by “and” are separate records of one study, mostly repeats; a detail may differ. ± gives the spread as reported.
U2AF2: U2AF2 148-342 (Homo sapiens, UniProt P26368)
Chain of UniProt P26368 (whole entry, looked up): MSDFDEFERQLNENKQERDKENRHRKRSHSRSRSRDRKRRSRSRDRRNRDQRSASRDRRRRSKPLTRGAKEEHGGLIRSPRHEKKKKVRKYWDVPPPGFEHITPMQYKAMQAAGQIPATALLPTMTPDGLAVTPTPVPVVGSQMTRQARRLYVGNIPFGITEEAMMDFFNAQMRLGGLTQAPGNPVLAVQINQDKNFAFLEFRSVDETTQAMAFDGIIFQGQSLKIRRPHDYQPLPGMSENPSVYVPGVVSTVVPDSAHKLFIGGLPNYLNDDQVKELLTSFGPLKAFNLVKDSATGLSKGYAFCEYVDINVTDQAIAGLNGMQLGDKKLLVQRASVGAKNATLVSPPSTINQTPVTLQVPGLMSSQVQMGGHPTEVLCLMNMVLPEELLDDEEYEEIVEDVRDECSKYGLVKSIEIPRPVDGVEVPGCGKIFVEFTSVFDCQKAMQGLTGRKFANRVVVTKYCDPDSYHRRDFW
B1: PPM1B (human); sequence looked up; chain GAFLDKPKTEKHNAHGAGNGLRYGLSSMQGWRVEMEDAHTAVVGIPHGLEDWSFFAVYDGHAGSRVANYCSTHLLEHITTNEDFRAAGKSGSALELSVENVKNGIRTGFLKIDEYMRNFSDLRNGMDRSGSTAVGVMISPKHIYFINCGDSRAVLYRNGQVCFSTQDHKPCNPREKERIQNAGGSVMIQRVNGSLAVSRALGDYDYKCVDGKGPTEQLVSPEPEVYEILRAEEDEFIILACDGIWDVMSNEELCEYVKSRLEVSDDLENVCNWVVDTCLHKGSRDNMSIVLVCFSNAPKVSDEAVKKDSELDKHLESRVEEIMEKSGEEGMPDLAHVMRILSAENIPNLPPGGGLAGKRNVIEAVYSRLNPHRESDGASDEAEESGSQGKLVEALRQMRINHRGNYRQLLEEMLTSYRLAKVEGEESPAEPAATATSSNSDAGNPVTMQESHTESESGLAELDSSNEDAGTKMSGEKI
B2: STK38 (human); sequence looked up; chain AMTGSTPCSSMSNHTKERVTMTKVTLENFYSNLIAQHEEREMRQKKLEKVMEEEGLKDEEKRLRRSAHARKETEFLRLKRTRLGLEDFESLKVIGRGAFGEVRLVQKKDTGHVYAMKILRKADMLEKEQVGHIRAERDILVEADSLWVVKMFYSFQDKLNLYLIMEFLPGGDMMTLLMKKDTLTEEETQFYIAETVLAIDSIHQLGFIHRDIKPDNLLLDSKGHVKLSDFGLCTGLKKAHRTEFYRNLNHSLPSDFTFQNMNSKRKAETWKRNRRQLAFSTVGTPDYIAPEVFMQTGYNKLCDWWSLGVIMYEMLIGYPPFCSETPQETYKKVMNWKETLTFPPEVPISEKAKDLILRFCCEWEHRIGAPGVEEIKSNSFFEGVDWEHIRERPAAISIEIKSIDDTSNFDEFPESDILKPTVATSNHPETDYKNKDWVFINYTYKRFEGLTARGAIPSYMKAAK

| Molecule | target or system | assay | test system | conditions | scale | quantity | result |
| --- | --- | --- | --- | --- | --- | --- | --- |
| human ME2 R91A | – | enzyme activity, NADH absorbance | – | without fumarate, added: L-malate varied | – | Hill coefficient | 1 ± 0.01 |
| KDECVIATEV | construct, MBP fusion, human SCRIB, PDZ 3-4 | automated holdup | peptide, crude extract | concentration not given, corrected by standard peak, unit not given | baseline: biotin control resin, higher = stronger binding | binding intensity | 0.0689 |
| GGAAUGUCU (ssRNA) | U2AF2 | sequencing of bound RNA | RNA | motif only | – | Kd | 5.42 µM |
| Polymyxin B | Staphylococcus aureus | DiSC3(5) fluorescence | – | concentration not given, 36 min | higher = more depolarisation | membrane depolarisation | 638 a.u. and 593 a.u. and 873 a.u. |
| Peginesatide | UT7/EPO | microarray, item: MAFF mRNA (probe set 36711_at) | – | 20 nM, 90 min | baseline: vehicle | mRNA level | 4.6 fold |
| B1 (PPM1B) | CYB5R4 knockout human cells | PP4 interaction, 3xFLAG-PP4C IP-MS | – | concentration not given | baseline: CYB5R4 KO over parental | log2 fold change | -0.06 |
| GSGAGKETEC | construct, MBP fusion, human SCRIB, PDZ 3-4 | automated holdup | peptide, purified PDZ protein | concentration not given, unit not given | baseline: biotin control resin, higher = stronger binding | binding intensity | 0.188 |
| VVVGAAGVGK | HLA-A*11:01 peptide-β2M single-chain trimer | western blot, item: pMHC-I | peptide, 293T cells | 60 h, unit not given, added: 100 µg/mL cycloheximide | baseline: time zero | remaining protein | 0.563 and 0.531 and 0.529 |
| SEKHFRETEV | construct, MBP fusion, human SCRIB, PDZ 3-4 | automated holdup | peptide, crude extract | concentration not given, corrected by standard peak, unit not given | baseline: biotin control resin, higher = stronger binding | binding intensity | 0.816 |
| milbemycin oxime | Saccharomyces cerevisiae | cell growth | Pdr5 deleted, Cdr1 overexpressed | 2^-9.966 µg/mL, added: fluconazole 1 µg/mL | – | OD600 | 1.03 and 1.01 |
| human ILF2 | CYB5R4 knockout human cells | PP4 interaction, 3xFLAG-PP4C IP-MS | – | concentration not given | baseline: CYB5R4 KO over parental | log2 fold change | -0.83 |
| difelikefalin | – | – | Japanese haemodialysis patients with pruritus | intravenous, 0.25 µg/kg, 8 weeks | – | PGIC much worse | 0% |
| GSGAGKETYY | construct, MBP fusion, human SCRIB, PDZ 3-4 | automated holdup | peptide, crude extract | concentration not given, uncorrected, unit not given | baseline: biotin control resin, higher = stronger binding | binding intensity | -0.029 |
| B2 (STK38) | CYB5R4 knockout human cells | PP4 interaction, 3xFLAG-PP4C IP-MS | – | concentration not given | baseline: CYB5R4 KO over parental | log2 fold change | 0.72 |
| colistin | Acinetobacter baumannii | broth microdilution | clinical isolate RKI-No_3/15 | – | – | MIC | ≤ 0.5 µg/mL |
| protein-L-isoaspartate O-methyltransferase, human | CYB5R4 knockout human cells | PP6 interaction, 3xFLAG-PP6C IP-MS | – | concentration not given | baseline: CYB5R4 KO over parental | log2 fold change | -0.77 |
| epoetin alfa | UT7/EPO | microarray, item: EGR4 (probe 207767_s_at) | – | 5 U/mL, 90 min, added: SCF 10 nM | baseline: vehicle | mRNA level | 3.5 fold |
| proteasome subunit alpha-2 (human) | CYB5R4 knockout human cells | PP4 interaction, 3xFLAG-PP4C IP-MS | – | concentration not given | baseline: CYB5R4 KO over parental | log2 fold change | 0.64 |
| GACUUCUUA (ssRNA) | U2AF2 | sequencing of bound RNA | RNA | motif only | – | Kd | 7.67 µM |

A few entries again:
| Molecule | target or system | assay | test system | conditions | scale | quantity | result |
| --- | --- | --- | --- | --- | --- | --- | --- |
| B2 (STK38) | CYB5R4 knockout human cells | PP4 interaction, 3xFLAG-PP4C IP-MS | – | concentration not given | baseline: CYB5R4 KO over parental | log2 fold change | 0.72 |
| colistin | Acinetobacter baumannii | broth microdilution | clinical isolate RKI-No_3/15 | – | – | MIC | ≤ 0.5 µg/mL |
| protein-L-isoaspartate O-methyltransferase, human | CYB5R4 knockout human cells | PP6 interaction, 3xFLAG-PP6C IP-MS | – | concentration not given | baseline: CYB5R4 KO over parental | log2 fold change | -0.77 |
